# Published values gathered from unrelated publications.
# Protocols differ between the studies behind these lines.
# CIT: Citron Rho-interacting kinase (CIT, Homo sapiens, UniProt O14578)
# Sequence of UniProt O14578 (whole entry, looked up): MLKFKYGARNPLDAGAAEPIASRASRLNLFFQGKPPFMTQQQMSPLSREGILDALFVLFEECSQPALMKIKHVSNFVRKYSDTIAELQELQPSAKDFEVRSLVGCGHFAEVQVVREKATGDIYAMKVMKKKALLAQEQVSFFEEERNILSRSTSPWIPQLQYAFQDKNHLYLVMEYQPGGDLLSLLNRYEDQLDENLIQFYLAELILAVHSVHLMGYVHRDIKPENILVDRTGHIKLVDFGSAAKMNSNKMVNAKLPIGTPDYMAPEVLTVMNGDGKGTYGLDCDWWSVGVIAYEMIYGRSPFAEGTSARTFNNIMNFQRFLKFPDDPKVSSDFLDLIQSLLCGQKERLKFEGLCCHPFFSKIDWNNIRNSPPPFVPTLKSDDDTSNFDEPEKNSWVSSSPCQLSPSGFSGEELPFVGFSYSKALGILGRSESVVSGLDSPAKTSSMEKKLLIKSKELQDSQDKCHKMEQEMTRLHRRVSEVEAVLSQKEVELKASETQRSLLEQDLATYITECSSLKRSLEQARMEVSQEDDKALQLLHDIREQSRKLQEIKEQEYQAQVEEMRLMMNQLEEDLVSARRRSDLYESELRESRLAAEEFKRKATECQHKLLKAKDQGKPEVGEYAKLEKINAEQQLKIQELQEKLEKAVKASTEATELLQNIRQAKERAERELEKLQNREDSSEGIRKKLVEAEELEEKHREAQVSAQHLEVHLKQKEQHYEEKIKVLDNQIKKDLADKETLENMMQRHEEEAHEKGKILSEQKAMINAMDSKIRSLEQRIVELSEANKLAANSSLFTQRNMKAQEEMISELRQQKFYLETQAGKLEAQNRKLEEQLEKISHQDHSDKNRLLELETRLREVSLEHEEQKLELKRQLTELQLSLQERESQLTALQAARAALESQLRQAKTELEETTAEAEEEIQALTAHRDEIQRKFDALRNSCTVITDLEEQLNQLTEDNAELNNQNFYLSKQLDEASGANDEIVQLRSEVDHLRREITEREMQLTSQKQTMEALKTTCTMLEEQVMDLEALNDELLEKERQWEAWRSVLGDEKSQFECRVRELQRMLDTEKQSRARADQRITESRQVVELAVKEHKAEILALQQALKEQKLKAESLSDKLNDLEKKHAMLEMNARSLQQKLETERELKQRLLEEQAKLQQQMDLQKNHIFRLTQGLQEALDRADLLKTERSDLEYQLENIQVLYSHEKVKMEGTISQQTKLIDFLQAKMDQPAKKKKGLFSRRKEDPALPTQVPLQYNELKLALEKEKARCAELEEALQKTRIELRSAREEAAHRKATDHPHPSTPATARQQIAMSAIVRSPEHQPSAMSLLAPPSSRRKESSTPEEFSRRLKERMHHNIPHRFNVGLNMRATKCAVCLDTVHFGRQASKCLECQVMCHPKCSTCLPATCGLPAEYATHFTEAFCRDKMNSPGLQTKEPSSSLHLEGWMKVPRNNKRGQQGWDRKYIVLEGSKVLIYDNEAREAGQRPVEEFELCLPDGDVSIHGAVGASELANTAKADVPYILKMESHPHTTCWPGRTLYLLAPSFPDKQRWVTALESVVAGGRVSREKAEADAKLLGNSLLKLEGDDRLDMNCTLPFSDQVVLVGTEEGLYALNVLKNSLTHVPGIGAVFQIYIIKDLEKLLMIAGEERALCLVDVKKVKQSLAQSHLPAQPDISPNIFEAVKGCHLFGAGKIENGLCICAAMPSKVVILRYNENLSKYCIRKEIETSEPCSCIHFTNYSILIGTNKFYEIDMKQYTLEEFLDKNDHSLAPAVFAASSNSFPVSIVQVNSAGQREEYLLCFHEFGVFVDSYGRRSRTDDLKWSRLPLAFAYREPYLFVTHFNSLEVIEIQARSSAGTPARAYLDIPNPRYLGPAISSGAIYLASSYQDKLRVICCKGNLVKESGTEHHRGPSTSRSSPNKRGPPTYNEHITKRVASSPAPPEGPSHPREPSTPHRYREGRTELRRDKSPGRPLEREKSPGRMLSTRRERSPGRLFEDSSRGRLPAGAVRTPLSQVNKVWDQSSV
# Sequence of UniProt Q15139 (whole entry, looked up): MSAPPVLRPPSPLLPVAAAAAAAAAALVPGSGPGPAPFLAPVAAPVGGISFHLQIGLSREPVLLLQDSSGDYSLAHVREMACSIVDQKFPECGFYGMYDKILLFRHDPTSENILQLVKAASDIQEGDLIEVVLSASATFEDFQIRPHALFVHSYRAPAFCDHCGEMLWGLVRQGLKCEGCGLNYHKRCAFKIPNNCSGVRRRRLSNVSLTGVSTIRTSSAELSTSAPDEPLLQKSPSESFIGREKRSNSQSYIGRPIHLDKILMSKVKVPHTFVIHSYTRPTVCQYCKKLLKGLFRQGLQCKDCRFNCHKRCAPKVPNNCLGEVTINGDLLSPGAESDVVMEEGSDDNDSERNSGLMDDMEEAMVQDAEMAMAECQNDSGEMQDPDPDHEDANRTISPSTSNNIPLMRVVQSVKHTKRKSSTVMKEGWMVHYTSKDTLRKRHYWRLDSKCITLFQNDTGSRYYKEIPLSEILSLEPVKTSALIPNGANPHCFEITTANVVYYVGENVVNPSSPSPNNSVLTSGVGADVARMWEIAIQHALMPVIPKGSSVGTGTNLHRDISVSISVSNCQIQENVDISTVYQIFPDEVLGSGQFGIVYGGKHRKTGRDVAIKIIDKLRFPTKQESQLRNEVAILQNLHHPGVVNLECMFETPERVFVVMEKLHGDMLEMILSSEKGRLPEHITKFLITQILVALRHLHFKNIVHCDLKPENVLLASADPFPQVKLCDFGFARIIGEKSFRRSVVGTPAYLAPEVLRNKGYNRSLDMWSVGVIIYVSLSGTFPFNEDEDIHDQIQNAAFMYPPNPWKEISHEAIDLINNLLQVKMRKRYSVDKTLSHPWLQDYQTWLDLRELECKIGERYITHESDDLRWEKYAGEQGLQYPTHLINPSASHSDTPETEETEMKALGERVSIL
SMILES,target or system,test,system,conditions,endpoint,result
CC[C@@H]1NC(=O)[C@H](CC(C)C)NC(=O)CN(C)C(=O)CNC(=O)[C@@H](CC(C)C)NC(=O)[C@@H](Cc2ccc(O)cc2)NC(=O)CSC[C@@H](C(=O)O)NC(=O)[C@H](C(C)C)NC(=O)[C@H](CC(C)C)NC(=O)[C@H](C)NC(=O)[C@H]([C@@H](C)CC)NC1=O,,,aqueous buffer,pH 7.4,solubility,137 µM
CC(C)CC(=O)OC[C@H]1O[C@@](C#N)(c2ccc3c(N)ncnn23)[C@H](O)[C@@H]1O,,general toxicity,Sprague-Dawley rat,"oral, multiple doses",NOAEL,400 mg/kg/day
CCCC[C@H](NC(C)=O)C(=O)N[C@@H](C)C(=O)N[C@@H](Cc1c[nH]cn1)C(=O)N[C@@H](Cc1ccccc1)C(=O)N[C@@H](CCCNC(=N)N)C(=O)N[C@H](Cc1c[nH]c2ccccc12)C(=O)N[C@@H](CC(=O)O)C(=O)N[C@@H](CCCNC(=N)N)C(=O)N[C@@H](Cc1ccccc1)C(=O)N[C@@H](C(=O)N1CCC[C@@H]1C(N)=O)C(C)C,,,"male cynomolgus monkey, plasma","subcutaneous, 8 mg/kg",half-life,2.23 h
CCCC[C@@H]1NC(=O)[C@H](Cc2ccc(O)cc2)NC(=O)[C@@H]2CCCN2C(=O)[C@H](CC(=O)O)NC(=O)[C@H](C)NC(=O)[C@H](Cc2ccccc2)NC(=O)[C@@H]2CSCCC(=O)N3CN(CN(C3)C(=O)CCSC[C@H](NC(C)=O)C(=O)N[C@@H](CC(C)(C)C)C(=O)N3CCC[C@H]3C(=O)N[C@@H](CCC(=O)O)C(=O)N[C@H](CCCCNC(=O)CCc3cn(CCOCCOCCOCCN(CCOCCOCCOCCC(=O)N[C@H]4CSCCC(=O)N5CN6CN(C5)C(=O)CCSC[C@H](NC(=O)[C@@H](CC(=O)O)NC(=O)[C@H](Cc5cccc7ccccc57)NC(=O)[C@@H]5CCCN5C4=O)C(=O)N[C@@H](CCSC)C(=O)N[C@@H](CCCCNC(=N)N)C(=O)N[C@@H](CC(=O)O)C(=O)N[C@@H](Cc4c[nH]c5ccccc45)C(=O)N[C@@H](CO)C(=O)N[C@@H]([C@@H](C)O)C(=O)N4CCC[C@H]4C(=O)N4C[C@H](O)C[C@H]4C(=O)N[C@@H](Cc4c[nH]c5ccccc45)C(=O)N[C@H](C(N)=O)CSCCC6=O)CCOCCOCCOCCn4cc(CCC(=O)NCCCC[C@H]5NC(=O)[C@H](CCC(=O)O)NC(=O)[C@@H]6CCCN6C(=O)[C@H](CC(C)(C)C)NC(=O)[C@@H](NC(C)=O)CSCCC(=O)N6CN7CN(C6)C(=O)CCSC[C@H](NC(=O)[C@H](Cc6ccc(O)cc6)NC(=O)[C@@H]6CCCN6C5=O)C(=O)N[C@@H](Cc5ccccc5)C(=O)N[C@@H](C)C(=O)N[C@@H](CC(=O)O)C(=O)N5CCC[C@H]5C(=O)N[C@@H](Cc5ccc(O)cc5)C(=O)N[C@@H](CCCC)C(=O)N[C@H](C(N)=O)CSCCC7=O)nn4)nn3)C(=O)N3CCC[C@H]3C(=O)N[C@@H](Cc3ccc(O)cc3)C(=O)N2)C(=O)CCSC[C@@H](C(N)=O)NC1=O,,,"rat, plasma","intravenous, 2 mg/kg",Vd,2.2 L/kg
CC(C)C[C@H]1C(=O)N[C@@H](C(C)C)C(=O)N[C@@H](Cc2ccccc2)C(=O)N[C@H](CC(=O)O)C(=O)N2CCC[C@@H]2C(=O)N[C@H](CCC(=O)O)C(=O)N[C@H](C(=O)O)CSSC[C@@H](N)C(=O)N[C@@H](CCC(=O)O)C(=O)N2CCC[C@H]2C(=O)N1C,,,aqueous buffer,"18 h, pH 7.4",solubility,617 µM
CCC[C@@](N)(CO)CCc1ccc(OCCCCCC(C)C)cc1,,,"dog, plasma","intravenous, 1 mg/kg",half-life,~19.5 h
CC[C@H](C)[C@H]1C(=O)N[C@H](Cc2ccc(O)cc2)C(=O)N[C@H](C(=O)O)CSSC[C@H](N)C(=O)N[C@@H](Cc2ccccc2)C(=O)N[C@@H](C(C)C)C(=O)N[C@@H](CC(C)C)C(=O)N2CCC[C@H]2C(=O)N[C@@H](CC(N)=O)C(=O)N[C@@H](Cc2ccc(O)cc2)C(=O)N1C,,,aqueous buffer,"18 h, pH 7.4",solubility,646 µM
Cc1[nH]c(C)c(S(=O)(=O)Nc2ccc(S(F)(F)(F)(F)F)cc2)c1C(=O)N1CCC(F)(F)C1,,,"mouse, plasma","intraperitoneal, 40 mg/kg",Tmax,1 h
Cc1nn(C)cc1-c1nc2c(N3CCN(Cc4ccc(Cl)cc4)CC3)c(Cl)cnc2[nH]1,CIT,"binding, competition with immobilised ligand",,1 µM,remaining binding,83%
CCCC[C@@H]1NC(=O)[C@H](Cc2ccc(O)cc2)NC(=O)[C@@H]2CCCN2C(=O)[C@H](CC(=O)O)NC(=O)[C@H](C)NC(=O)[C@H](Cc2ccccc2)NC(=O)[C@@H]2CSCCC(=O)N3CN(CN(C3)C(=O)CCSC[C@@H](C(=O)N[C@@H](C)C(N)=O)NC1=O)C(=O)CCSC[C@H](NC(=O)[C@H](C)NC(C)=O)C(=O)N[C@@H]([C@@H](C)CC)C(=O)N[C@@H](CCC(=O)O)C(=O)N[C@@H](CCC(=O)O)C(=O)N[C@H](CCCCNC(=O)CCc1cn(CCOCCOCCOCCN(CCOCCOCCOCCC(=O)N[C@H]3CSCCC(=O)N4CN5CN(C4)C(=O)CCSC[C@H](NC(=O)[C@@H](CC(=O)O)NC(=O)[C@H](Cc4cccc6ccccc46)NC(=O)[C@@H]4CCCN4C3=O)C(=O)N[C@@H](CCSC)C(=O)N[C@@H](CCCCNC(=N)N)C(=O)N[C@@H](CC(=O)O)C(=O)N[C@@H](Cc3c[nH]c4ccccc34)C(=O)N[C@@H](CO)C(=O)N[C@@H]([C@@H](C)O)C(=O)N3CCC[C@H]3C(=O)N3C[C@H](O)C[C@H]3C(=O)N[C@@H](Cc3c[nH]c4ccccc34)C(=O)N[C@H](C(N)=O)CSCCC5=O)CCOCCOCCOCCn3cc(CCC(=O)NCCCC[C@H]4NC(=O)[C@H](CCC(=O)O)NC(=O)[C@H](CCC(=O)O)NC(=O)[C@H]([C@@H](C)CC)NC(=O)[C@@H](NC(=O)[C@H](C)NC(C)=O)CSCCC(=O)N5CN6CN(C5)C(=O)CCSC[C@H](NC(=O)[C@H](Cc5ccc(O)cc5)NC(=O)[C@H](CCC(N)=O)NC4=O)C(=O)N[C@@H](Cc4ccccc4)C(=O)N[C@@H](C)C(=O)N[C@@H](CC(=O)O)C(=O)N4CCC[C@H]4C(=O)N[C@@H](Cc4ccc(O)cc4)C(=O)N[C@@H](CCCC)C(=O)N[C@H](C(=O)N[C@@H](C)C(N)=O)CSCCC6=O)nn3)nn1)C(=O)N[C@@H](CCC(N)=O)C(=O)N[C@@H](Cc1ccc(O)cc1)C(=O)N2,,,"rat, plasma","intravenous, 2 mg/kg",Vd,0.59 L/kg
CC[C@H](C)[C@H](NC(=O)[C@H](Cc1ccccc1)NC(=O)[C@H](CCC(=O)O)NC(=O)[C@H](CCCCN)NC(=O)[C@H](C)NC(=O)[C@H](C)NC(=O)[C@H](CCC(N)=O)NC(=O)CNC(=O)[C@H](CCC(=O)O)NC(=O)[C@H](CC(C)C)NC(=O)[C@H](Cc1ccc(O)cc1)NC(=O)[C@H](CO)NC(=O)[C@H](CO)NC(=O)[C@@H](NC(=O)[C@H](CC(=O)O)NC(=O)[C@H](CO)NC(=O)[C@@H](NC(=O)[C@H](Cc1ccccc1)NC(=O)[C@@H](NC(=O)CNC(=O)[C@H](CCC(=O)O)NC(=O)[C@H](C)NC(=O)N(N)Cc1c[nH]cn1)[C@@H](C)O)[C@@H](C)O)C(C)C)C(=O)N[C@@H](C)C(=O)N[C@@H](Cc1c[nH]c2ccccc12)C(=O)N[C@@H](CC(C)C)C(=O)N[C@H](C(=O)N[C@@H](CCCNC(=N)N)C(=O)NCC(=O)N[C@@H](CCCNC(=N)N)C(=O)NCC(=O)O)C(C)C,,,"male CD-1 mouse, plasma","intravenous, 1 mg/kg, single dose",Vd,0.06 L/kg
CC[C@H](C)[C@@H]1NC(=O)[C@H](CO)NC(=O)[C@H](C(C)C)NC(=O)[C@H](CC(C)C)NC(=O)[C@H](CC(C)C)NC(=O)[C@H]2CCCN2C(=O)[C@@H](CC(C)C)NC(=O)CNC(=O)[C@H]2CCCN2C(=O)[C@@H](Cc2ccc(O)cc2)NC1=O,,,aqueous buffer,"18 h, pH 7.4",solubility,692 µM
COc1ccc(F)cc1C(=O)NCc1ccc(-c2nn([C@@H](C)C(F)(F)F)c(N)c2C(N)=O)cc1,,,"human, plasma","oral, 200 mg, single dose, fasted, healthy volunteers",Tmax,3 h
COc1ncccc1-c1cnn2ccc(N3CCN(C(=O)OC(C)C)CC3)nc12,CIT,"binding, competition with immobilised ligand",,1 µM,remaining binding,92%
CC[C@@H](C)[C@H]1NC(=O)[C@@H](Cc2ccc(O)cc2)NC(=O)[C@H](CCCNC(=N)N)NC(=O)[C@H](CCSC)NC(=O)[C@H](CC(C)C)NC(=O)[C@H](CC(C)C)NC(=O)[C@H]2CCCN2C(=O)[C@H](CC(C)C)NC(=O)CNC(=O)CNC(=O)CNC1=O,,,aqueous buffer,"18 h, pH 7.4",solubility,661 µM
CC(C)C[C@H](NC(=O)[C@H](Cc1ccccc1)NC(=O)[C@H](Cc1ccccc1)NC(=O)Cc1ccc(-c2ccccc2)cc1)C(=O)N[C@@H](CCCCN)C(=O)N[C@@H](CCCNC(=N)N)C(=O)N[C@H](C(=O)N[C@@H](Cc1c[nH]c2ccccc12)C(=O)N[C@@H](CCCCN)C(=O)N[C@@H](CCCNC(=N)N)C(=O)O)C(C)C,,metabolic stability,"rat, liver microsomes",30 min,compound remaining,25.4%
CC[C@H](C)[C@@H]1NC(=O)[C@H]2CCCN2C(=O)[C@@H](CC(C)C)NC(=O)CNC(=O)[C@H]2CCCN2C(=O)[C@@H](Cc2ccc(O)cc2)NC(=O)CNC(=O)[C@H](CO)NC(=O)[C@H](C(C)C)NC(=O)[C@H](CC(C)C)NC1=O,,,aqueous buffer,"18 h, pH 7.4",solubility,912 µM
N=c1c2c(-c3ccccc3)c(-c3ccccc3)n(Cc3ccccc3)c2ncn1[C@H]1CC[C@H](O)CC1,,metabolic stability,"minipig, hepatocytes","1 µM, 4 h",compound remaining,71%
CC(C)(N)CNC(=O)O[C@@H]1CCC[C@]2(C1)OOC1(O2)C2CC3CC(C2)CC1C3 (stereo partly drawn),,,"male CD-1 mouse, plasma","oral, 10 mg/kg",Tmax,1 h
CNC(=O)[C@@H](NC(=O)c1cc(OCC2(C)COC2)c(C2CC2)cn1)C(C)(C)C,,,"C57BL/6 mouse, plasma",intravenous,Vd,3.1 L/kg
CC(C)C[C@@H]1NC(=O)[C@H](CCC(=O)O)NC(=O)[C@H]2CCCN2C(=O)[C@@H](N)CSSC[C@@H](C(=O)O)NC(=O)[C@H]2CCCN2C(=O)[C@@H](Cc2ccccc2)NC(=O)[C@H](CC(C)C)NC(=O)[C@H]([C@@H](C)O)NC(=O)[C@H](C(C)C)NC1=O,,,aqueous buffer,"18 h, pH 7.4",solubility,676 µM
CCOC(=O)c1c(NC(=O)CNC(C)C)sc2c1CCCCC2,,,"male mouse, plasma","intraperitoneal, 100 mg/kg, single dose",Tmax,0.25 h
CC(c1cncnc1)n1c(=S)[nH]c2ccc(Cl)cc2c1=O (stereo not drawn),,metabolic stability,"human, liver microsomes","1 µM, pH 7.4",half-life,> 3.1 h
[2H]c1c([2H])c([C@]2([2H])CCCN2C(=O)C(C)(C)Oc2ccc3cn[nH]c3c2)c([2H])c([2H])c1C([2H])([2H])[2H],"PRKD1 (Homo sapiens, UniProt Q15139)","binding, competition with immobilised ligand",,1 µM,remaining binding,77%

# For quick reference, copied from above:
SMILES,target or system,test,system,conditions,endpoint,result
CC(C)(N)CNC(=O)O[C@@H]1CCC[C@]2(C1)OOC1(O2)C2CC3CC(C2)CC1C3 (stereo partly drawn),,,"male CD-1 mouse, plasma","oral, 10 mg/kg",Tmax,1 h
CNC(=O)[C@@H](NC(=O)c1cc(OCC2(C)COC2)c(C2CC2)cn1)C(C)(C)C,,,"C57BL/6 mouse, plasma",intravenous,Vd,3.1 L/kg
CC(C)C[C@@H]1NC(=O)[C@H](CCC(=O)O)NC(=O)[C@H]2CCCN2C(=O)[C@@H](N)CSSC[C@@H](C(=O)O)NC(=O)[C@H]2CCCN2C(=O)[C@@H](Cc2ccccc2)NC(=O)[C@H](CC(C)C)NC(=O)[C@H]([C@@H](C)O)NC(=O)[C@H](C(C)C)NC1=O,,,aqueous buffer,"18 h, pH 7.4",solubility,676 µM
